Experimental data of several laboratories.
A part holds a random share of what one study measured. Positions count from the first letter of the parent shown.

Block 1
Target: CCNE2, cyclin fold, Cln2 fusion (human)
Method: yeast growth competition, sequencing
Matrix: yeast
Notes: weak parent motif
Reference: not given
Reading: higher = stronger binding
Measurement: normalised enrichment score
Starting sequence: ORC1 docking peptide (human); PRARKRLELGNLG; partner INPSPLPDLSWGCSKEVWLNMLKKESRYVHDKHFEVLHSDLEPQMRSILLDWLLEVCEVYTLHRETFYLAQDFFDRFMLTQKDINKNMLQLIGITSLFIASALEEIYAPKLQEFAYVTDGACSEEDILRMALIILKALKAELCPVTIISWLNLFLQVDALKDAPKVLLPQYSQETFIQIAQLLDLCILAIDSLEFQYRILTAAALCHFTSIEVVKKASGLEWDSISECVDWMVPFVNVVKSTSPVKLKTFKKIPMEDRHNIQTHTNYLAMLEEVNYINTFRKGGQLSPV
PRKRKRLELGNLG [A3K]: 0.593
PRARKRLELGRLG [N11R]: 0.694
PRARKRLELGVLG [N11V]: 0.996
PSARKRLELGNLG [R2S]: 0.723
PRARQRLELGNLG [K5Q]: 0.165
PRARKRHELGNLG [L7H]: 0.282
PRARKRLELGNAG [L12A]: 0.951

Block 2
Target: RNA binding protein fox-1 homolog 2, RRM domain, GST-SBP tag (RBFOX2, Homo sapiens, UniProt O43251-10, residues 100-194)
Method: RNA Bind-n-Seq
Form: RNA
Matrix: in vitro
Tested at: 365 nM
Notes: natural RNA segment, single round, ends assumed
Reference: no-protein control
Reading: higher = stronger binding
Measurement: RBNS enrichment (R)
Construct (chain): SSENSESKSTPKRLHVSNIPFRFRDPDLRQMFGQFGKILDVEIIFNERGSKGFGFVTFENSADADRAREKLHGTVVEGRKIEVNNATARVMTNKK
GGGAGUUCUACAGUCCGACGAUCCUGUCUGCUUCAUUCCUGUUUAAUACAGAUUACCAUUCCUAACUCCUCUCUAGCACUUCUCACCACUGAGCCAUCUCUCCAGCCCCAAUAACUUUAUUUUUUAAGACAGGUGGAAUUCUCGGGUGCCAA: 0.825
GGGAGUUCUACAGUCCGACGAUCUUGCCUUUGGUCCUCUUGGACAGAGAGCAGGCUCAGGCCAUUGACAUCACAGUUCUUCCUUUUAACUCUAGUGACCCGGGGUCCGAGUUGCCCCUAUGCUUCCAGGGCAAUGGAAUUCUCGGGUGCCAA: 0.384
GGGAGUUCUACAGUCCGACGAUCAACACCAGCUGCUGUCAAGCAAGCUUAUAUCAUGUAAAUUAUCUGAAUUAGGAGCCGUUUUGGUAAUUAUUUCAUAUAUCGCCGUUUAUUGAGAAAAGGUUGUAGGAAGCUGGAAUUCUCGGGUGCCAA: 0.253
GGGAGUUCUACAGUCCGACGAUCACAUCUAUUAUUAUAGUGCUCAGCAGUGUGGGCAUUGAAGAGGCGCAGAAUGCUUUGAAAGAAACUAAUCAGAAUCUUGGAACAUCAUGAUCAUGCCAUUCUUAAGUAAAUGGAAUUCUCGGGUGCCAA: 0.456
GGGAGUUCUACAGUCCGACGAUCCAAGUUUUGUAUAAAUAAUAAAGAACUCCUUAUUUUGUAUUACAUCUAAUGCUUCAAGUGUUGCUCUUGGAAAGCUGAUGAUGUCUCUUGUAGAAGAUGGACUCUGAAAAUGGAAUUCUCGGGUGCCAA: 0.571
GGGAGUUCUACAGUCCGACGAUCCUUAUGGAUUGACUAGAUUCAUAUCACUUUCUCCUCUAAAAUAUUGUAGUAUUUUCUUAUAGUUAUAACUCAAAAAUAUCAAGCAGACAGAGAAUUUAGGCAGUGCAAAGUGGAAUUCUCGGGUGCCAA: 0.595
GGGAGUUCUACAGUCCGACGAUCAAAAUAAAUAAAUAAUAAUUUGUGUAUGUGAUGACUGACUCUAGUCAUUAUGGAAAAUAACUUUUGGCAGUUUAGUUCCUAAUGUUAACAAUUCCUCUUUUUAAGAGAGGUGGAAUUCUCGGGUGCCAA: 0.58
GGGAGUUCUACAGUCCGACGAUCUGUGUGUAACUUCUAACUUCACUGGUUCCUCCCAUCUGAAUUGGCCACAUGCUUGCUGAAGAGACUUGUUUUCUUCUUCUAAGACAGUGGUUUUGUUUUUUGGGUUUUUUUGGAAUUCUCGGGUGCCAA: 0.227
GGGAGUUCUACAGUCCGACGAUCCAAACUGAUUUGUUAAAGCUCCAGGUCACGUUCUUACACUAAGAAAAUCAUUCAGUAAACAUGAGACAAGUUUAGGAAAAACUAAUAAAAUAAACCUGUCUUAAACUUGAUGGAAUUCUCGGGUGCCAA: 0.489
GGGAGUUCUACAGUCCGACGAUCGGAUGCAAAUGUUUUCAGUUAGAAAGCCUUUAUUUACUUUUGGAAAUUGAACAAGAAAUGCAUCUGUCUUAGAAACUGGAGAUUAUUUGAUGUUAGGUAAAACAUGUAAUUGGAAUUCUCGGGUGCCAA: 0.659

Block 3
Target: Phosphate system positive regulatory protein PHO4, full length, GST-tagged (PHO4, Saccharomyces cerevisiae, UniProt P07270, residues 1-312)
Method: competition protein-binding microarray
Form: double-stranded DNA, one strand shown
Matrix: in vitro
Tested at: 2 µM
Notes: whole 60-bp probe, lowest competitor level
Added: Cbf1 competitor, 0.05 µM
Reading: higher = stronger binding
Measurement: fluorescence intensity
Construct (chain): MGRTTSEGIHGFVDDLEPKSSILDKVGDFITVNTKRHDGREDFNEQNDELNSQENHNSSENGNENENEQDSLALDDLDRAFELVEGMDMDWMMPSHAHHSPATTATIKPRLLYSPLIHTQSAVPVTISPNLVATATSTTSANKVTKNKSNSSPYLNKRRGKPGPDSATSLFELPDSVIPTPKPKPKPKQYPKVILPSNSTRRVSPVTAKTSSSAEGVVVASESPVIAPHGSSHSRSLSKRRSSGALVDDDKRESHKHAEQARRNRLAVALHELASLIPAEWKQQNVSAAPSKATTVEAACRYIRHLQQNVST
AAAGCGGTAATTTGGTACGTGGGTGCAGATATCTATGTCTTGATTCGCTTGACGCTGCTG: 8860 a.u.
TAATAATTCTTGTTCCTCGTGGCCGAATGGTTACGGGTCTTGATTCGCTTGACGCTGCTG: 11800 a.u.
CCGACCACTGGGATCCACATGTCCTTGTCTCTCAGGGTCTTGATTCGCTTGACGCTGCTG: 10100 a.u.
CTAACGAAGGTTTTTCACGTGCCGTACAAGCCAAGTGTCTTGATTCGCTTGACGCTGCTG: 15500 a.u.
AGCGACCTTCTTGGCACCGTGCTTTTTGGCGACCTTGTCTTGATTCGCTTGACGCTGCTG: 7770 a.u.
GAAGGAGAGACTGTTCACATGCCTGAGGAAGATGACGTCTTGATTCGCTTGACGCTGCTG: 7590 a.u.
AATGATATCACCAGTACCGTGACGGACATCAAACTCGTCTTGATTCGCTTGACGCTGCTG: 4090 a.u.
CTCGCGTTAGAGCAGTACGTGGCCGAGCTAAACTCGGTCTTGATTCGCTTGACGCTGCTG: 5500 a.u.
ACAAGTTCATCATTTCACGTGTGGAGCATAGTGTGGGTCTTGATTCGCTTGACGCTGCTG: 12400 a.u.
AGGGTTACACTCCATCACGTGGGACACCATAATTTAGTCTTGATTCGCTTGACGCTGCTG: 16900 a.u.
CATACCCAACCTTGAGGAGTGGGTGAAGATATTTGTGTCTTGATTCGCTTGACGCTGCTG: 4600 a.u.
CCGAAAAGTGAAGATGATGTGATATTGGGCGAGAGCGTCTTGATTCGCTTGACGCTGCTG: 3000 a.u.

Further values, each from its own experiment
PhoQ, residues 284 288 289 292 302 303 SLANIV — fold induction (PhoP, residues 12 14 15 18 19 NFCKL (Escherichia coli, UniProt P23836); Sort-seq, measured: YFP reporter; E. coli; PhoQ-PhoP variant library, added: 10 µM Mg2+; reference: high Mg2+ state, higher = stronger signaling): 10.8

For quick reference, copied from above (block 1):
PRARKRLELGVLG [N11V]: 0.996
PSARKRLELGNLG [R2S]: 0.723
